Measured values of several laboratories.
Each numbered part is a random draw from the data of one study; scales do not carry over between parts.
Chain of UniProt P61077 (whole entry, looked up): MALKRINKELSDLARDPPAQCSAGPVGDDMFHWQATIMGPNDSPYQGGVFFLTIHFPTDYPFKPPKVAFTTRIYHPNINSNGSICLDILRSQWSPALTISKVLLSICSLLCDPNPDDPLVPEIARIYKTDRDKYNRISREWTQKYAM

Block 1
Target: Prothrombin, mature alpha-thrombin (F2, Homo sapiens, UniProt P00734)
Technique: aptamer microarray, sandwich
Molecule type: DNA with 2'F-ANA
Matrix: in vitro
Concentration: 200 nM
Notes: whole 15-mer aptamer, many near background
Added: Cy3 exosite-II aptamer, 400 nM
Direction: higher = stronger binding
Strand: GGTTGGTGTGGTTGG
Modification | mean fluorescence intensity [a.u.]
2'F-ANA at 2 3 7 8 9 13 14 15 | 435
2'F-ANA at 1 5 7 8 10 11 13 | 50.1
2'F-ANA at 2 3 4 6 7 15 | 566
2'F-ANA at 6 8 10 11 12 14 15 | 97.7
2'F-ANA at 1 2 5 7 8 9 11 12 | 109
2'F-ANA at 1 3 6 8 11 12 13 14 15 | 114
2'F-ANA at 2 4 6 7 10 14 15 | 59.8
2'F-ANA at 1 2 5 7 8 9 14 | 46

Block 2
Target: PABPC1L2, full length, GST fusion (mouse, UniProt A0ABA7IW68)
Technique: RNAcompete
Molecule type: RNA
Matrix: in vitro
Concentration: 20 nM
Notes: 7-mer, probes averaged, single round
Relative to: mean of 7-mers
Direction: higher = stronger binding
Target sequence (chain): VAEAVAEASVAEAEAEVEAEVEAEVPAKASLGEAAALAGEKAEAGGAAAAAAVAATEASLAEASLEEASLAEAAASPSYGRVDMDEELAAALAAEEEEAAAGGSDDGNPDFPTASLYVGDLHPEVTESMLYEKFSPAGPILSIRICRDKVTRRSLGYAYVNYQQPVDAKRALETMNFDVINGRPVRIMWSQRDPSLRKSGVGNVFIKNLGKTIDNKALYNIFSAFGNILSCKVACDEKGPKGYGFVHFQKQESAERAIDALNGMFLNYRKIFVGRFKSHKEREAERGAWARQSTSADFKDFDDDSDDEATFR
Strand | 7-mer Z-score
GUAUGGG | 0.0587
GGUACAA | 0.414
GCGAAGC | -0.132
AAUCCCU | -0.166
CCGCAAA | 0.62
UGAAUUU | -0.0718
GCUUACU | -0.202
AAAGCUA | 0.61

Other studies, line by line
B1: PRKN RING domain (UniProt O60260); chain LIATNSRNITCITCTDVRSPVLVFQCNSRHVICLDCFHLYCVTRLNDRQFVHDPQLGYSLPCVAGCPNSLIKELHH
Molecule | target | assay | test system | setting | scale | measurement | value
B1 (PRKN RING domain) | UBE2D3 UBC core domain (UniProt P61077) | yeast two-hybrid | yeast | mostly zero background | relative to: not given, higher = stronger interaction | lacZ reporter activity | 0
EKLKKKSAF | HLA class I histocompatibility antigen, A alpha chain, allele A*25:01 (Homo sapiens, UniProt P04439) | peptide-MHC binding | peptide | concentration not given |  | binding | inactive

Some of these lines once more (block 2):
Strand | 7-mer Z-score
UGAAUUU | -0.0718
GCGAAGC | -0.132
